# Measurements from different studies.
# ± gives the spread as reported.
Compound,assay,system,setting,quantity,value
CCCC(CCC)NC(=O)c1ccc2c(c1)OCO2,,"Swiss albino CD-1 mice, male, bone marrow","intraperitoneal, 175 mg/kg, 48 h",PCE/NCE ratio,0.9
CO[C@H]1C[C@@H]2CC[C@@H](C)[C@@](O)(O2)C(=O)C(=O)N2CCCC[C@H]2C(=O)O[C@H]([C@H](C)C[C@@H]2CC[C@@H](OC(=O)NCCOCCOCCOCCOCCOCCOCCOCCOCCC(=O)N3CCc4cc(Cn5nc(-c6ccc7oc(N)nc7c6)c6c(N)ncnc65)ccc4C3)[C@H](OC)C2)C[C@@H](O)[C@H](C)/C=C(\C)[C@@H](O)[C@@H](OC)C(=O)[C@H](C)C[C@H](C)/C=C/C=C/C=C/1C,"phase 1 dose escalation, measured: decreased appetite",advanced solid tumour patients,"intravenous, 8 mg weekly, grade ≥3",TRAE incidence,0%
O=C(Nc1cccc(B(O)O)c1)c1cccc(OCc2ccccc2)c1,PAMPA,pre-coated trilayer membrane,"200 µM, 5 h, pH 7.4, donor plate, PBS",donor concentration,126 ± 14.7 µM
O=C1Nc2cc3[nH]nc(-c4ccncc4)c3cc2CN1Cc1ccccc1,CTCAE v4.03,"human, relapsed or refractory advanced solid tumours","intravenous, 0.9 mg/kg, pooled schedules",patients with nausea,0%
[O-][S+]1CCc2nc(N3CCC(c4ncc(Cl)cn4)CC3)nc(NC3(CO)CCC3)c21 (centres unmarked),measured: abdominal distension,healthy male humans,36 mg single dose,adverse event incidence,0%
COc1cc2c(Oc3ccc4[nH]c(C)cc4c3F)ccnc2cc1OCC1(N)CC1,,paediatric refractory sarcoma patients,8 mg,grade 1-2 QTc prolongation,0%
Cn1cc(-c2nc(N[C@@H]3CCCC[C@@H]3N)c(F)c3c2C(=O)NC3)cn1,measured: Hematochezia,patients with relapsed or refractory AML,"oral, 120 mg once daily",hemorrhagic adverse events,25%
CCc1ccc(CC/C=C/c2ccc3c(c2)C(=O)CC3)cc1,,"Sprague-Dawley rat, male","oral, 120 mg/kg/day, 14 days",ALP serum activity,269 U/L
